# Experimental data gathered from unrelated publications.
# Each numbered part is a random draw from the data of one study; scales do not carry over between parts.
# UniProt Q9BWU1, sequence (whole entry, looked up): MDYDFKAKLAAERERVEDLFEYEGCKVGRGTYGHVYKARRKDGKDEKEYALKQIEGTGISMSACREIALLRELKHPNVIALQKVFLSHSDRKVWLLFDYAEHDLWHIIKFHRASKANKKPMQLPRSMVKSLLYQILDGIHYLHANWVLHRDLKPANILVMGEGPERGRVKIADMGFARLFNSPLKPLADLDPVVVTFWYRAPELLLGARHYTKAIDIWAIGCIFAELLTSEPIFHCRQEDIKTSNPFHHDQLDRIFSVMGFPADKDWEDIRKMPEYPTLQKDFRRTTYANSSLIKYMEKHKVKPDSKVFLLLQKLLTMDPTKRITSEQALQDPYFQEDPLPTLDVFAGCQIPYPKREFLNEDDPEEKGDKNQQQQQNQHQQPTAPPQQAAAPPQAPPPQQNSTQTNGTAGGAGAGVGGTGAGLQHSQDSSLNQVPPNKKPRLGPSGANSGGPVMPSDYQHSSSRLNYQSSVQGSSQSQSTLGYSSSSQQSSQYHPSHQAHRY
# UniProt P33981, sequence (whole entry, looked up): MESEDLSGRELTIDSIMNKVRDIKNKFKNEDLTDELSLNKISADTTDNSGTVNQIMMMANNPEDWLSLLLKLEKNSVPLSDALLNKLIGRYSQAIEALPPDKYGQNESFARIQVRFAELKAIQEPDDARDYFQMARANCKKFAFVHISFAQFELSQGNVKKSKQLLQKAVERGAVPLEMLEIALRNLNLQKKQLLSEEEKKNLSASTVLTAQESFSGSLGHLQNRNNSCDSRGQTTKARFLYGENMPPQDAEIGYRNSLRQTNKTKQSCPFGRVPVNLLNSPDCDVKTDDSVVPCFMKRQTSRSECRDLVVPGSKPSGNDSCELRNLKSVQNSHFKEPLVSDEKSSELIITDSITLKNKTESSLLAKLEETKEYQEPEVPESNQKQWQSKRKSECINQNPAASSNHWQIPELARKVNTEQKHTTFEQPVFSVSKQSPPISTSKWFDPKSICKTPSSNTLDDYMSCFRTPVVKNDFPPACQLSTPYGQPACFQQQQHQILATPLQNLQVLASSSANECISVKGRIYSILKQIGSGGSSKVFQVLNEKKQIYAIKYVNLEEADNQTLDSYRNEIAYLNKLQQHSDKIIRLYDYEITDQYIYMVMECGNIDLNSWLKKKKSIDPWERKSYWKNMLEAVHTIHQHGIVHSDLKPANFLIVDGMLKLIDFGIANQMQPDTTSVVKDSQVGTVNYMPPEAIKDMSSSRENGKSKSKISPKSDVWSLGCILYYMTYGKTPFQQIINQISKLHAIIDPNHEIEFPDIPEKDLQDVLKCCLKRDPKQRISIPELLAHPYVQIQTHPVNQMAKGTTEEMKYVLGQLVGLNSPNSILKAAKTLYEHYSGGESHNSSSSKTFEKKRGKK
# UniProt P29597, sequence (whole entry, looked up): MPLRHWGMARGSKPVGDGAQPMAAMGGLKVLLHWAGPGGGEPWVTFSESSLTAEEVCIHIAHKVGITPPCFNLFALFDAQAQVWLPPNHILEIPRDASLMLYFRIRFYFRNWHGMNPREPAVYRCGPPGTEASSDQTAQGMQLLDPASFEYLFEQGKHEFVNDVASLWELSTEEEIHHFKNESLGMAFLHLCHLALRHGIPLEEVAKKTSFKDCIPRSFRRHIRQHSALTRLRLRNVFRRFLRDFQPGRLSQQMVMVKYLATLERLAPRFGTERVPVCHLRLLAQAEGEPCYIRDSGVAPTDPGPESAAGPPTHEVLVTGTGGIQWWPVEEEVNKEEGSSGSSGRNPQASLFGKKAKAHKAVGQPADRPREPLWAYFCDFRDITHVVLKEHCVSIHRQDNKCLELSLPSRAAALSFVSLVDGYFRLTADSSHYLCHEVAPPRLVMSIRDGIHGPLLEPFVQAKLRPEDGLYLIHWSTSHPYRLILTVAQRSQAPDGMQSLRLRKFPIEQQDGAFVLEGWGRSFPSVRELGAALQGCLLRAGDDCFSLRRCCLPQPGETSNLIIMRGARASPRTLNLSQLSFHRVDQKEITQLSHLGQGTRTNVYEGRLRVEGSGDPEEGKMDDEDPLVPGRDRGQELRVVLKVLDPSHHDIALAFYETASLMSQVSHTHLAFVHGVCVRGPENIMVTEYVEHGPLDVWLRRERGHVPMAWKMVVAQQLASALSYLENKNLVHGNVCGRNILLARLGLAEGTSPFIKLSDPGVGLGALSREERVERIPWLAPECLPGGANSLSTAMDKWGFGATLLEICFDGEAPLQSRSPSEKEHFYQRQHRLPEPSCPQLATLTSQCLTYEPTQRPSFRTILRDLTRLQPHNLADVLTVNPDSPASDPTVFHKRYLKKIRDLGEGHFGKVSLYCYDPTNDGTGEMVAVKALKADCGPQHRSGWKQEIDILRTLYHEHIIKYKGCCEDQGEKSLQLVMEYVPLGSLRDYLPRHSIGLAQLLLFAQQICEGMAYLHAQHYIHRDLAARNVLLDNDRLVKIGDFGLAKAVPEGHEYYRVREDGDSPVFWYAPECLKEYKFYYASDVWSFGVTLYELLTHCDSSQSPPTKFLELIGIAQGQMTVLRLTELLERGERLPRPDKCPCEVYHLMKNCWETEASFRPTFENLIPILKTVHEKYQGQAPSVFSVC

# Study 1
# SMILES: CO[C@H]1CC[C@H](CNc2ccc(S(=O)(=O)NC(=O)c3ccc(N4CCN(CC5=C(c6ccc(Cl)cc6)CC(C)(C)CC5)CC4)cc3Oc3cnc4[nH]ccc4c3)cc2[N+](=O)[O-])CC1
# Tested at: 1 µM
target,assay,remaining binding
"CDK19 (Homo sapiens, UniProt Q9BWU1)",competition binding,73%
"Non-receptor tyrosine-protein kinase TYK2, JH1 (TYK2, Homo sapiens, UniProt P29597)","cell-free assay, competition with immobilised ligand",98%
"EGFR (Homo sapiens, UniProt P00533, L858R)","cell-free assay, competition with immobilised ligand",60%
"EGFR (Homo sapiens, UniProt P00533, del746-750)","cell-free assay, competition with immobilised ligand",100%
"TTK (Homo sapiens, UniProt P33981)","cell-free assay, competition with immobilised ligand",82%

# Study 2
# Target: Glycogen synthase kinase-3 beta (GSK3B, Homo sapiens, UniProt P49841)
# UniProt P49841, sequence (whole entry, looked up): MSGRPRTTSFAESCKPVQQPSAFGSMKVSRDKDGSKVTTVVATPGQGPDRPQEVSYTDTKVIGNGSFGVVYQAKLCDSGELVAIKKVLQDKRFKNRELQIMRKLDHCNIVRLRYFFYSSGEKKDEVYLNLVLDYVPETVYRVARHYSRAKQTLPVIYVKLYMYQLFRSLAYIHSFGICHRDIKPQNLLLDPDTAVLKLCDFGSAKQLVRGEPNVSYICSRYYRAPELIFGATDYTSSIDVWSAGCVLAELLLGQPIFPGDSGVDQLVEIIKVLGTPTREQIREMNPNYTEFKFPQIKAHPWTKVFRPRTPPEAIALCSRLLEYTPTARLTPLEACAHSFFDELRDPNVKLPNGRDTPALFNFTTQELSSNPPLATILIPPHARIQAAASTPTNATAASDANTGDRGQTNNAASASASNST
# Effect on: enzyme activity
# Mode: inhibitor
# Tested at: 0.5 µM
# Reference: control
SMILES,remaining activity [%]
O=C(O)c1ccc2c3c1cccc3c(=O)n1c3ccccc3nc21,100
OCC(O)CCON=C1C(c2c(O)[nH]c3ccccc23)=Nc2ccccc21 (stereo not drawn),12.6
Cc1nc(-c2ccccc2)c(-c2ccncc2)o1,105
O=C1NC(=O)C(c2cn(CCCn3ccnc3)c3ccccc23)=C1Nc1ccccc1,14.2
COc1ccc(C(=O)Nc2sc3c(c2C(N)=O)CCCC3)cc1OC,97.7
CO[C@H]1C[C@@H]2CC[C@@H](C)[C@@](O)(O2)C(=O)C(=O)N2CCCC[C@H]2C(=O)O[C@H]([C@H](C)C[C@@H]2CC[C@@H](O)[C@H](OC)C2)CC(=O)[C@H](C)/C=C(\C)[C@@H](O)[C@@H](OC)C(=O)[C@H](C)C[C@H](C)/C=C/C=C/C=C/1C,109
NCCNc1ncc(C(N)=O)c(Nc2cccc(C(F)(F)F)c2)n1,96.8
O=C(Nc1cccc(Nc2cc(Nc3cccc(C(F)(F)F)c3)ncn2)c1)C1CC1,114
Cn1c2ccccc2c2c3c(c4c5ccccc5n(CCC#N)c4c21)CNC3=O,38.9
C#Cc1cccc(Nc2ncnc3cc(OCCOC)c(OCCOC)cc23)c1,102
O=S(=O)(c1cccc2cnccc12)N1CCCNCC1,102
COc1ccc(OC)c2c(=S)c3ccccc3[nH]c12,61.3

# Study 3
# Target: Myc proto-oncogene protein, bHLH-zipper, MAX partner unstated (MYC, Homo sapiens, UniProt P01106, residues 368-449)
# UniProt P01106, sequence (368-449, looked up): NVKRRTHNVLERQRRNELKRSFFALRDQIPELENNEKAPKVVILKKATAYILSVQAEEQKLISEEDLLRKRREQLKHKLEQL
# Method: protein-binding microarray
# Form: double-stranded DNA, one strand shown
# Sample: in vitro
# Tested at: not given
# Setting: k-mer, scored over probes, only values ≥0.25
# Reading: higher = stronger binding
Oligonucleotide,E-score
ATGCGTGC,0.421
CACGTTCA,0.274
CATACATG,0.268
GGGGCGGA,0.26
AGCCACAT,0.283
ACGCGCGT,0.37
ATCACATG,0.436
CACCTGGC,0.34

# Study 4
# Target: Probable WRKY transcription factor 11, DNA-binding domain (WRKY11, Arabidopsis thaliana, UniProt Q9SV15, residues 228-325)
# UniProt Q9SV15, sequence (228-325, looked up): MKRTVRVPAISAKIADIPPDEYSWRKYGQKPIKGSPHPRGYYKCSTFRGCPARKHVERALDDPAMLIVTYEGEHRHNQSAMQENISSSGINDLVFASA
# Method: DNA-protein interaction ELISA
# Form: double-stranded DNA, one strand shown
# Sample: in vitro, bacterial lysate
# Tested at: not given
# Setting: whole dsDNA probe, crude lysate protein
# Reference: highest signal in screen
# Reading: higher = stronger binding
Oligonucleotide,relative absorbance
AAAAAAGTTGCCGACGATTGCGGGTTAAAA,17.9 % of maximum
AAAAAACGTGCGCGTGCATGTCATCGAAAA,17.3 % of maximum
AAAAAAATGTTCAAGCTCGATCTACAAAAA,15.6 % of maximum
AAAAAAGCCATCATGGTTAGTGTACAAAAA,16.1 % of maximum
AAAAAAGCCCCTTGCGCCTCTCTACCAAAA,17 % of maximum
AAAAAAGCCTTTACCCTTGTTCCTCTAAAA,16.4 % of maximum
AAAAAACGGAAGATCGTGACTGCTAGAAAA,19.9 % of maximum
AAAAAATGTTGTTGCTGTTGGTCCTAAAAA,18.4 % of maximum
